{"data": "Results gathered from unrelated publications", "note": "A part holds a random share of what one study measured. Positions count from the first letter of the parent shown."}
{"data": "Set 1", "Substance": "PhoQ, residues 284 288 289 292 302 303 NLCILV", "technique": "Sort-seq", "item": "YFP reporter", "sample": "E. coli", "notes": "PhoQ-PhoP variant library", "added": "10 µM Mg2+", "relative to": "high Mg2+ state", "reading": "higher = stronger signaling"}
{"target": "PhoP, residues 12 14 15 18 19 QYCSL (Escherichia coli, UniProt P23836)", "fold induction": 14.8}
{"target": "PhoP, residues 12 14 15 18 19 STHWV (Escherichia coli, UniProt P23836)", "fold induction": 18.9}
{"target": "PhoP, residues 12 14 15 18 19 SHWTV (Escherichia coli, UniProt P23836)", "fold induction": 12.8}
{"data": "Set 2", "target": "RNA binding protein fox-1 homolog 2, RRM domain, GST-SBP tag (RBFOX2, Homo sapiens, UniProt O43251-10, residues 100-194)", "technique": "RNA Bind-n-Seq", "form": "RNA", "sample": "in vitro", "tested at": "365 nM", "notes": "natural RNA segment, single round, ends assumed", "relative to": "no-protein control", "reading": "higher = stronger binding", "all sequences stand within": "GGGAGUUCUACAGUCCGACGAUC … UGGAAUUCUCGGGUGCCAA", "Target sequence (chain)": "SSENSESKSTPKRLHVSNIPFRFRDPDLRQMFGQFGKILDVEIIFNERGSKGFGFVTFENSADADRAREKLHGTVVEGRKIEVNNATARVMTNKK"}
{"Oligonucleotide": "AUGCAGGAACUAGAAACACAUCUUCAGCCUCCUCCUGGGCCAGCUCUUGUGCUACAGGUGGGGCGGAGCCAGCCCCUCACCUUCCUGGUUCCCUGAGGGUCCUCAGGGUG", "RBNS enrichment (R)": 0.416}
{"Oligonucleotide": "AUUUGAAAUAAUGCUGUCUGAAUGGCCAACAUCCCAAGAAUGUAUUAAAAACAGCAACCCUGCCUACCGUUUUGAUGACCUUUUUCCAUAUUAAACAAGUUGAGAACAAA", "RBNS enrichment (R)": 0.79}
{"Oligonucleotide": "UUCUCAUCUGUGUUCCAGUAUCUACGGGAGGAGGAGCCCUUCUGACUGCGCCCUGAGGACGUGGACGCUGUUAGGAACCAAACUCUGUCCUGAGCUUCCUCUAGCUCACU", "RBNS enrichment (R)": 0.249}
{"Oligonucleotide": "AUCUUGGAGAACCACAAUGGAUUCUUCUGUCUCUAUACUUUCUGGGGUUCUUUCCCCUCCCUCUCAUGAGAGUAAAGUCCCCAGCAGAUUUGAGUGAGUCAGGGGAAACA", "RBNS enrichment (R)": 0.369}
{"Oligonucleotide": "UCUUGCCUGCAGUGUGUGUGGCAGCAGCCCAUGUGCCUUUACCUGUUGUCAAACUUGCAAGCAUUUAUUUGUCUUUAUGACUGUCAUGGGGACUGAGGUUCUUCAGAGAA", "RBNS enrichment (R)": 0.631}
{"Oligonucleotide": "CCCGAUAGCUGCCUGGUGCGGCAGCGGCGGCCAAAUCUUCCGUCCUCCCGUGGAUCUCCCGGGGUGGGGGCAGGGCGGGUCCCACGAUGGCCCCCAUUGCCCUCAUCACC", "RBNS enrichment (R)": 0.242}
{"Oligonucleotide": "GAUGUAUGCCCCACCCCCUCCUCCUCCGCCUCCCAUGGACCCUUCUAACUUUGUCACCAUGAUGGGCAUGGGGGUGGCGGGCAUGCCGCCCUUCGGGAUGCCUCCAGCUC", "RBNS enrichment (R)": 0.588}
{"Oligonucleotide": "AAACGCAACUCAAAUCUGUGCUGGACUUUAAAAAAACAAUUCAGGACCAAAUUUUUUCUCAGUGUGUGUGUUUAUUCCUUAUAGGUGUAAAUGAGAAGACGUGUUUUUUU", "RBNS enrichment (R)": 4.09}
{"Oligonucleotide": "GAAAGGGACCCCUCUCCAGUCCUGGCUCCUUCCUACAUCCUGGGCUCCUGAAGAAGCUGUCUUCCCAUUUUCCAUGCGCUGUGCUUAUGUGUGGUGGACUGCAGAGCUGC", "RBNS enrichment (R)": 0.844}
{"Oligonucleotide": "CAGAAAAUAAGCCAUUCCUCAUAUCAGUGGGAUAAACUCCUUGUACCUCUUGCUGUGUUUGGAUCCCUUGGCCUUGUUUUGUAGAGGUGAAGUACCCCUGGAUCAUGUCC", "RBNS enrichment (R)": 1.28}
{"Oligonucleotide": "GUUCAUGAAACUAGAAAUGUCAUCCUGCUUGAUUUUUCAUCAGCCAAGUUAAACCCCUGCUUUCUGUCCUUUGCACCUUUUGCGUGAACAGAAUAUGCAUUAUUAAAGCA", "RBNS enrichment (R)": 1.05}
{"data": "Set 3", "target": "ABI1, truncated, D143A, DHFR fusion (Arabidopsis thaliana)", "technique": "DHFR PCA, deep sequencing", "sample": "yeast", "notes": "methotrexate growth selection, single substitutions", "added": "(+)-ABA 0.0091 µM", "relative to": "wild-type fitted maximum", "reading": "higher = stronger binding", "parent": "PYL1, truncated, DHFR fusion (Arabidopsis thaliana); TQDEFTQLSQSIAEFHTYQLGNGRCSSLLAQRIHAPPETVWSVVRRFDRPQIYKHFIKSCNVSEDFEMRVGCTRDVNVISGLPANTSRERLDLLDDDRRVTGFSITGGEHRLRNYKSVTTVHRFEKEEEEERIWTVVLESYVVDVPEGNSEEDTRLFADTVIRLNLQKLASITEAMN"}
{"Substitution": "T119K", "relative binding score [%]": -2.16}
{"Substitution": "Q10R", "relative binding score [%]": 21}
{"Substitution": "C25M", "relative binding score [%]": 2.98}
{"Substitution": "L8V", "relative binding score [%]": -2.56}
{"Substitution": "A170T", "relative binding score [%]": 4.25}
{"Substitution": "F157R", "relative binding score [%]": -1.73}
{"Substitution": "N177H", "relative binding score [%]": 57.6}
{"Substitution": "S27T", "relative binding score [%]": 4.11}
{"data": "Set 4", "target": "CCNF, cyclin fold, Cln2 fusion (human)", "technique": "yeast growth competition, sequencing", "sample": "yeast", "notes": "strong parent motif", "relative to": "not given", "reading": "higher = stronger binding", "parent": "INSM1 docking peptide (human); PKAIRKLHFEDEV"}
{"Substitution": "F9D", "normalised enrichment score": -0.0815}
{"Substitution": "K6G", "normalised enrichment score": 2.76}
{"Substitution": "E12F", "normalised enrichment score": 7.99}
{"Substitution": "D11R", "normalised enrichment score": 7.17}
{"Substitution": "R5A", "normalised enrichment score": 0.48}
{"Substitution": "D11Q", "normalised enrichment score": 7.73}
{"Substitution": "K6V", "normalised enrichment score": 6.36}
{"Substitution": "H8W", "normalised enrichment score": 7.31}
{"Substitution": "K2I", "normalised enrichment score": 6.8}
{"note": "Excerpt of the above (set 3):"}
{"Substitution": "T119K", "relative binding score [%]": -2.16}
{"Substitution": "Q10R", "relative binding score [%]": 21}
{"Substitution": "C25M", "relative binding score [%]": 2.98}
